# Measured values from different studies.
# Protocols differ between the studies behind these lines. Numbers after ± are the reported error. Ends that are not written are not given here. * marks the point of attachment.
# Cell line: MDA-MB-231
Substance,test,conditions,scale,measurement,result
COc1cc([C@@H]2c3cc4c(cc3[C@@H](O[C@@H]3O[C@@H]5CO[C@@H](C)O[C@H]5[C@H](O)[C@H]3O)[C@H]3COC(=O)[C@H]23)OCO4)cc(OC)c1O,"cell growth or viability, MTT",48 h,,IC50,30.6 µM
COc1c(C=O)c(O)cc2c1C(=O)c1ccccc1C2=O,"chemotactic migration, inhibitor, Transwell","3 h, together with: 10% FCS",,effective concentration range,1 to 10 µM
C#C[C@@]1(O)[C@@H](CO)O[C@@H](n2cc(Br)c3c(N)ncnc32)[C@@H]1O,SRB,48 h,,GI50,0.136 ± 0.08 µM
COc1cccc2c1C(=O)c1c(O)c3c(c(O)c1C2=O)C[C@@](O)(C(=O)CO)C[C@@H]3O[C@H]1C[C@H](N)[C@H](O)[C@H](C)O1,cell viability,,reference: 3D mono-culture over tissue chip,IC50 ratio,~70 fold
heparin,"cell migration, wound healing","6 µM, 20 h",,maximal inhibition,~18%
O=C(N/N=C/c1ccc(O)c(O)c1)c1cc2ccccc2cc1O,"endocytosis inhibitor, flow cytometry","80 µM, 1 h, 37 °C, together with: lipopeptide-siRNA complex, methyl-β-cyclodextrin 3.5 mM",,siRNA uptake,decreased
CNC(=O)c1cc(Oc2ccc(NC(=O)Nc3ccc(Cl)c(C(F)(F)F)c3)cc2)ccn1,cell proliferation,"1 µM, 72 h, colloidal and monomeric formulation",reference: untreated,inhibition,~65%
COc1ncc(F)c(NCc2ccc(CNc3nc(OC)ncc3F)cc2)n1,cell invasion (Matrigel),"10 nM, together with: CXCL12 200 ng/mL",,inhibition,> 60%
CC(=O)N1N=C(c2ccc(NC(=O)CN3CCN(c4ccc(Cl)cc4)CC3)cc2)CC1c1ccc(C)cc1 (centres unmarked),"cell growth or viability, MTT",,,IC50,56.1 µM
Fc1cnc(NCc2ccc(CNc3nccc(C(F)(F)F)n3)cc2)nc1,cell invasion (Matrigel),"10 nM, together with: CXCL12 200 ng/mL",,inhibition,> 60%
COC(=O)c1c(-c2ccc(F)cc2)c2n(c1C(=O)OC)CCn1cccc1-2,"cell growth or viability, MTT",48 h,,IC50,84.2 µM
Dnp-KEQNPIYWARYADWLFTTPLLLLELALLVDADEGTG (DNP-labelled; Dnp = O=[N+]([O-])c1ccc(*)c([N+](=O)[O-])c1),ADCC,"1 µM, 4 h, pH 7.4, effector:target 50:1, together with: anti-DNP antibody, PBMC",,cell lysis,40%
O=c1[nH]nc(O)c2c(-c3cccc(O)c3)c3n(c12)CCn1cccc1-3,"cell growth or viability, MTT",48 h,,IC50,84.6 µM
CSc1nccc(NCc2ccc(CNc3ncc(F)cn3)cc2)n1,cell invasion (Matrigel),"100 nM, together with: CXCL12 200 ng/mL",,inhibition,92%
COC(=O)c1c(-c2cccc(O)c2)c2n(c1C(=O)OC)CCn1cccc1-2,"cell growth or viability, MTT",48 h,,IC50,87.4 µM
NCCC(=O)Nc1ccccc1/N=c1\cc(-c2ccc3nc(N)oc3c2)oc2ccc(F)cc12,"cell growth or viability, CCK-8",1 µM,,inhibition,> 70%
COc1ccc(-c2c3n(c4c(=O)[nH]nc(O)c24)CCn2cccc2-3)cc1,"cell growth or viability, MTT",48 h,,IC50,61 µM
c1cc(CN2CCCNCCNCCCNCC2)ccc1CN1CCCNCCNCCCNCC1,,"0.1 µM, 22 h",,inhibition,55%
COC(=O)c1c(-c2cccc(C)c2)c2n(c1C(=O)OC)CCn1cccc1-2,"cell growth or viability, MTT",48 h,,IC50,88.1 µM
c1ccc(CN(Cc2cccc(CN(Cc3ccccc3)CC3CC3)n2)CC2CC2)cc1,Matrigel invasion,"100 nM, 22 h, together with: CXCL12 200 ng/mL",,invasion inhibition,100%

# Excerpt of the above:
Substance,test,conditions,scale,measurement,result
COc1cc([C@@H]2c3cc4c(cc3[C@@H](O[C@@H]3O[C@@H]5CO[C@@H](C)O[C@H]5[C@H](O)[C@H]3O)[C@H]3COC(=O)[C@H]23)OCO4)cc(OC)c1O,"cell growth or viability, MTT",48 h,,IC50,30.6 µM
COc1c(C=O)c(O)cc2c1C(=O)c1ccccc1C2=O,"chemotactic migration, inhibitor, Transwell","3 h, together with: 10% FCS",,effective concentration range,1 to 10 µM
C#C[C@@]1(O)[C@@H](CO)O[C@@H](n2cc(Br)c3c(N)ncnc32)[C@@H]1O,SRB,48 h,,GI50,0.136 ± 0.08 µM
